Experimental data pooled from the literature.
Compare with care: the assays were run in different laboratories. Numbers after ± are the reported error.

CC(=O)Oc1ccccc1C(=O)[O][Pt]([NH2])([NH2])([Cl])([Cl])[O]C(=O)C(Cl)Cl  IC50 (BCPAP; cell growth or viability, MTT; 72 h): 0.06 µM
C=C[C@H](OC(C)=O)c1ccc(OC(C)=O)cc1  IC50 (HSC-4; cell growth or viability, MTT; 24 h): 5.5 µM
COc1ccc(Cn2cc(COc3c(OC)ccc4cc5[n+](cc34)CCc3cc4c(cc3-5)OCO4)nn2)cc1  IC50 (SW1990; cell growth or viability, MTT): 35.6 µM
C=CC(=O)N1CCCC(n2c(=O)c3ncccc3n(Cc3ccc(Oc4ccccc4)cc3)c2=O)C1 (stereo not shown)  IC50 (solid tumour cell lines; cell growth, MTT): > 10 µM
Cc1ccc(/C=C2\CCCC3C2=NN(C(=O)c2ccncc2)C3c2ccc(C)cc2)cc1 (stereo not shown)  IC50 (human erythrocytes; membrane protection, HRBC membrane stabilization): 0.25 µM
N=C(N/N=C/c1ccc2ccc3cccc4ccc1c2c34)N/N=C/c1ccc2ccc3cccc4ccc1c2c34  IC50 (KP-4; cell growth, crystal violet; 72 h): 163 ± 24.5 µM
O=C1/C(=C/c2ccccc2F)CNC/C1=C\c1ccccc1F  IC50 (BGC-823; cell growth or viability, MTT; 72 h): 2.3 µM
C=C1C(=O)[C@@]23CC[C@@H]4[C@](C)(COC(C)=O)CCC[C@@]4(CO)[C@@H]2[C@@H](O)C[C@@H]1C3  IC50 (HBE; cell growth or viability, MTT): 15 µM
COc1ccc(C[C@H]2COC(=O)[C@@H]2Cc2ccc(OCC(=O)Nc3ccc(C(=O)NO)cc3)c(OC)c2)cc1OC  IC50 (Kasumi 1; cell growth or viability, CCK-8; 48 h): > 5 µM
CCN(CC)c1ccc2c(c1)Oc1cc(N(CC)CC)ccc1C21c2ccccc2C(=O)N1N=Cc1c[c-]c(-c2ccccn2)cc1.Cc1c(C)c(-c2ccc(-c3ccccc3)cc2)[c-](C)c1C.[Cl-].[Ir+3]  IC50 (A549 human cancer cells; cell growth, MTT; 24 h): 36.8 ± 1.6 µM
COc1c(C)c(O)c(C(=O)C=Cc2ccccc2)c(OC)c1C  IC50 (FaDu; cell growth or viability, SRB; 72 h): 24.8 µM
[Cl][Cu-][c]1n(-c2c(C(c3ccccc3)c3ccccc3)cc(C(c3ccccc3)c3ccccc3)cc2C(c2ccccc2)c2ccccc2)c2c([n+]1-c1c(C(c3ccccc3)c3ccccc3)cc(C(c3ccccc3)c3ccccc3)cc1C(c1ccccc1)c1ccccc1)-c1cccc3cccc-2c13  IC50 (2008; cell growth, MTT; 72 h): > 50 µM
CC(=O)O[C@@H]1CC[C@@]2(C)[C@@H](CC[C@]3(C)[C@@H]2C(=O)C=C2[C@@H]4[C@@H](C)[C@H](C)CC[C@]4(C)CC[C@]23C)[C@@]1(C)C(=O)NCCNC(=O)C1CCCCC1  IC50 (HBE; cell growth or viability, MTT; 48 h): 4.61 µM
N[C@@H](CCC(=O)N[C@@H](CS[Se]Cc1ccc(-c2cc(C(F)(F)F)nn2-c2ccc(S(N)(=O)=O)cc2)cc1)C(=O)NCC(=O)O)C(=O)O  IC50 (WM35 melanoma cells; cell viability, MTS; 48 h, radial stage): 4.1 ± 0.8 µM
COc1cc(/C=C/C(=O)NCCCCCCNC2=C3C[C@@H](C)C[C@H](OC)[C@H](O)[C@@H](C)/C=C(\C)[C@H](OC(N)=O)[C@@H](OC)/C=C\C=C(/C)C(=O)NC(=CC2=O)C3=O)ccc1O  IC50 (BGC-823; cell growth or viability, MTT; 72 h): 0.709 µM
CC1CC(=O)N(CCCCCCN)N=C1c1ccc(NC(=O)N2Cc3ccncc3C2)cc1 (stereo not shown)  IC50 (MDA-MB-453; cell growth or viability, ATP luminescence): < 3e-05 µM
CC1=CC(c2ccccc2)=[O+][Pt-2]([NH3+])([NH3+])[O]1.O=[N+]([O-])[O-] (stereo not shown)  IC50 (U2OS; cell growth or viability, MTT): 8 µM
CCCCCCCCn1c(-c2cccnc2)nc(-c2ccc(C)cc2)c1-c1ccc(C)cc1  IC50 (L929; cell growth or viability, SRB): 67.2 µM
COc1ccc(-c2nn(-c3ccccc3)cc2/C=C(\C#N)c2nc3ccccc3[nH]2)cc1  IC50 (SW1990; cell growth or viability, ATP luminescence; 72 h): 57.6 µM

A few entries again:
C=C1C(=O)[C@@]23CC[C@@H]4[C@](C)(COC(C)=O)CCC[C@@]4(CO)[C@@H]2[C@@H](O)C[C@@H]1C3  IC50 (HBE; cell growth or viability, MTT): 15 µM
CCCCCCCCn1c(-c2cccnc2)nc(-c2ccc(C)cc2)c1-c1ccc(C)cc1  IC50 (L929; cell growth or viability, SRB): 67.2 µM
